Results from different studies.
A part holds a random share of what one study measured. Substitutions count along the parent as printed.

Sample 1 — method: RNAcompete; molecule type: RNA; medium: in vitro; tested at: 20 nM; setting: 7-mer, probes averaged, single round; reference: mean of 7-mers; direction: higher = stronger binding; endpoint: 7-mer Z-score
Target: PABPC1L2, full length, GST fusion (mouse, UniProt A0ABA7IW68)
Residues (chain): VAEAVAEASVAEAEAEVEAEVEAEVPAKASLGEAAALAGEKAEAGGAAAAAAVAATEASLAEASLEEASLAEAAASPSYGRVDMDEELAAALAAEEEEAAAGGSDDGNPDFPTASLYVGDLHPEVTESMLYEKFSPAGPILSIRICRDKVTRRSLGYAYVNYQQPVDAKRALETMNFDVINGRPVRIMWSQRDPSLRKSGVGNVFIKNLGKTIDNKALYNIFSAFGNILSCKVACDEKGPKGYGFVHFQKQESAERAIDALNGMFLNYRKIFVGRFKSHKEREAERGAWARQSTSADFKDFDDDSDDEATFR
CCUAUCC: -0.47
AAACGAG: 1.1
GUAAGAC: -0.148
UGGUUGA: -0.144
UUGUAAU: -0.318
GGGAUGU: 0.066
AACGCAG: 0.158
AAGAUAA: 0.698
UUCGCUC: -0.434
UCACAGC: -0.219
UUUGAUC: -0.211
ACGACCU: -0.161
GUCAGUG: -0.166

Sample 2 — target: CCNE2, cyclin fold, Cln2 fusion (human); method: yeast growth competition, sequencing; medium: yeast; setting: weak parent motif; reference: not given; direction: higher = stronger binding; endpoint: normalised enrichment score
Starting sequence: RB1 docking peptide (human); PKPLKKLRFDIEG; partner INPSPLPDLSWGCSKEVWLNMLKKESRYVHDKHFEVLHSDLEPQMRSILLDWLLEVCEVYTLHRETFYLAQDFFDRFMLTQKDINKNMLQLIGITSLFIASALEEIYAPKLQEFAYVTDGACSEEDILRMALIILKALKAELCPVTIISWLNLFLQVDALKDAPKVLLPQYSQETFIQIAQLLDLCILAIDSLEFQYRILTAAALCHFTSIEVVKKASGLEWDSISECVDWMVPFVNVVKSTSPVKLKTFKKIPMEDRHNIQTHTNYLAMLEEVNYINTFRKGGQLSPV
PKPLRKLRLDIEG [K5R F9L]: -0.0392
PKPLKKGRFDIEG [L7G]: 0.805
PKPEKKLRFDIEG [L4E]: 0.215
PKPLKKLRFDIEL [G13L]: 0.335
PKPLKKLTFDIEG [R8T]: 0.979
PKPLKKLRFAIEG [D10A]: 1.29
PKPLKRLRFDIEG [K6R]: 0.739
PKPLKKLQFDIEG [R8Q]: -0.0573
PKPLKKLRFDIEK [G13K]: 1.18
PKPLKKLRFDCEG [I11C]: 0.436
PKPLKFLRFDIEG [K6F]: 0.298
PKPLKKLRFDIIG [E12I]: 1.22

Sample 3 — method: RNA Bind-n-Seq; molecule type: RNA; medium: in vitro; tested at: 365 nM; reference: no-protein control; direction: higher = stronger binding; endpoint: RBNS enrichment (R)
Target: RNA binding protein fox-1 homolog 2, RRM domain, GST-SBP tag (RBFOX2, Homo sapiens, UniProt O43251-10, residues 100-194)
Setting: natural RNA segment, single round, ends assumed
All sequences stand within: GGGAGUUCUACAGUCCGACGAUC … UGGAAUUCUCGGGUGCCAA
Residues (chain): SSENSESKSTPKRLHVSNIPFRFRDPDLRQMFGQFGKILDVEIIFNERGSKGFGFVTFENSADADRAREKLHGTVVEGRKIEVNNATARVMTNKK
UGCUGAAUGACAUUAUUUGAGCUAUUUAAAGCUUACUUUAGUAUGAACUAAAUGAAGGUUAAAACAUGCUUUAGAAAAAUGCACUGAUCUCCGCACUGUGUGUACAGUAU: 0.344
ACGCCAGGAGCAGGUGGCAGCUAAGGUGGUCCCCCGCAACCCUCCCACUUGUGUCUCACCCCCAUGUCAUUUCUCCUUCUCUGCCUUGGUUCCUCUUUCUCCAUCACUGG: 0.534
CAUUUUCAUAAAACCGGUUAAUUUUGUAGUUUUAGCCAAAAAGUGCCCCCUUUUUACAACUGAAUUCAUCUAGCAUUUUCAUAUGGUGGAUUUAAACUGCUUAAAAAAGA: 1.51
CAUCUCACCGCUUCUUGUUUGACACCUUCACAAGUCAGCAUUAAUCUUUCUUUUAAAACUUGUUUCAUUUAUGAUCAUGUAGAGAGCCACUAGGAGGCCUGCAGUUAUUU: 0.514
UCCAAGCCUGAAAAGGUCCAGGUGUCUAAGCUCUUCUCUGACUGCAACGAGUUGAAUUCUAAUCCUCACAGGAUGGAUGCCAGUGUCGGCACUUUCUUAAUUAUGAGUAU: 0.426
GUGAUAAGGUAACAUGGGGUUUUUCUGGGCCAGCCUUUAGAACACUGUUAGGGUACAUACGCUACCUUGAUGAAAGGGACCUUCGUGCAACUGUAGUCAUCUUAAAGGCU: 0.313
CUAUUUUGAAGAUUAAAUGCACACUUUUUAUAUAAUGUGACCAGUUUAAAUGUAGUUUGUAUUGUACUGGGGGACCUUUCGUUGUUGUUGUUUGCUUAAACUGUGAUUUU: 7.98
UAGCAGGAGGUCCUCUACUGGUGAUACCCUCACCUUGGGGUAAUGGUCCUAACCCAGACCCAGGGUCUGGAAGCUUAAUGUUGAGUUGGUGACUCCAGCCUCUUUCUCCU: 0.357

Other studies, line by line
PhoQ, residues 284 288 289 292 302 303 SASVAL — fold induction (PhoP, residues 12 14 15 18 19 YHFSH (Escherichia coli, UniProt P23836); Sort-seq, measured: YFP reporter; E. coli; PhoQ-PhoP variant library, with: 10 µM Mg2+; reference: high Mg2+ state, higher = stronger signaling): 3.87

Some of these lines once more (sample 2):
PKPEKKLRFDIEG [L4E]: 0.215
PKPLKKLTFDIEG [R8T]: 0.979
PKPLKRLRFDIEG [K6R]: 0.739
PKPLKKLRFDIEL [G13L]: 0.335
